Measurements of several laboratories.
A part holds a random share of what one study measured. Positions count from the first letter of the parent shown.

Block 1
Target: ABI1, truncated, D143A, DHFR fusion (Arabidopsis thaliana)
Technique: DHFR PCA, deep sequencing
Medium: yeast
Setting: methotrexate growth selection, single substitutions
Added: (+)-ABA 58 µM
Relative to: wild-type fitted maximum
Direction: higher = stronger binding
Starting sequence: PYL1, truncated, DHFR fusion (Arabidopsis thaliana); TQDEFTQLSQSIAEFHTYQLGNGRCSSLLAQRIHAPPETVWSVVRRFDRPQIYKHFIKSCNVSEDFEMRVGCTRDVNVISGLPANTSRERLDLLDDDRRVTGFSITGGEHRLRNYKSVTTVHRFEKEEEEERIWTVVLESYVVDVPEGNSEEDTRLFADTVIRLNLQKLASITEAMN
Substitution | relative binding score [%]
E128F | 93.2
N149D | 35.4
M68A | 74.7
F47L | -9.01
H110P | 16.2
T39P | 57.8
C60E | 4.13
S171V | 81.4
T173D | 0.643
A170M | 64.8
F56I | -7.81
R24H | 73.1
R163I | 33.7
R123E | 92.1
G71F | 12.8
D96M | 29.7
V76S | 10.4

Block 2
Target: RING finger protein unkempt homolog, zinc fingers 1-6, GST-SBP tag (UNK, Homo sapiens, UniProt Q9C0B0, residues 30-357)
Sequence of UniProt Q9C0B0 (30-357, looked up): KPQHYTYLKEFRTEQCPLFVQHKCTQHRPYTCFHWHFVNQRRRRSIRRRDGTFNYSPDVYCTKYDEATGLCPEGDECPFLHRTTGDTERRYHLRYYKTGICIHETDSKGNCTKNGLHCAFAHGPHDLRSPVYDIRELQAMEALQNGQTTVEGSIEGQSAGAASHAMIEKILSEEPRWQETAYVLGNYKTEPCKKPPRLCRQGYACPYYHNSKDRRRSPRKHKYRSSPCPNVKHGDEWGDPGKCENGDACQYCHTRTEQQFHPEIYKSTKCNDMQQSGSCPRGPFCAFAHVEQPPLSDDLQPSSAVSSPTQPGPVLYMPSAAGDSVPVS
Technique: RNA Bind-n-Seq
Form: RNA
Medium: in vitro
Concentration: not given
Setting: RNA with constant flanks, human and mouse sites, ends assumed
Relative to: input RNA pool
Direction: higher = stronger binding
All sequences stand within: GGGAGUUCUACAGUCCGACGAUC … CAACAGAGGAUUGAGCAUCA
Sequence | bound/input enrichment [ratio]
GACAGCGACCUGCAGCUGGACCGAAUCUCUGUGUACUAUAAUGAAGCCACAGGUGGCAAGUAUGUCCCUCGAGCUAUCUUGGUGGAUCUAGAACCUGGGACUAUGGACUCCGUUCGCUCA | 0.104
GUCAACAGCUGCCUCAACCCCAUCCUCUACGCCUUCCUGGAUGAGAACUUCAAGGCCUGCUUCCGCAAGUUCUGCUGUGCAUCUGCCCUGCGCCGGGACGUGCAGGUGUCUGACCGCGUG | 0.275
CUUGAUGGCCUCCAAGCCGGAUAUCGACACAUUUCCCUUCGAAAUGAGGGAAAUAAACCAUUAUCACUACCAACAAUUUUCUGCAAUAUUGUUCUUAAAACAUAUGUGCCUGAUGGAUUU | 0.192
AAUUCAGGUAACUUCAAAAGUUCAUCAGAUAGAAACCCUCCACUCAGCCCUCAGUCCUCUAUAGAUAGUGAGUUAAGUGCUUCAGAAUUAGAUGAAGAUUCAAUUGGAUCCAACUAUAAG | 1.6
UACAUGGGAGAGACCACAGCCUUUGCCUCCAGGUUGGGAAAGAAGAGUUGAUGAUCGUGGAAGAGUUUAUUAUGUGGAUCAUAACACCAGAACAACAACCUGGCAGCGGCCUACUAUGGA | 0.236
AUGAAGGAGGCGUUUGGCUUUAUCGAAAGAGGUGAUGUUGUAAAAGAGAUAUUCUUUCACUAUAGUGAAUUUAAAGGUGACCUAGAAACCCUACAGCCUGGAGAUGACGUGGAAUUCACA | 0.407
GACAGAGAGGCACCUGGGUCAGUAUUAGUCUAUUUAUCAGAGGUGUAAAUAAUCUAUGUAUAGUUUUUCUCCUUUUAGAUUAUUUUGUAUUUGUUUAAAAGAAGUUUUGUCAAAAUACAA | 7.25
UUAAAAUUGAAUAAAAGGAAACUUGCAGGUCAUCAGGAGACUUCUACCAAAAGUAGUGAGACUGGAUCCACAAAAGAUAAUUUUAUACAAAAUAAUCCUUGUAAUAGUAAUCCUGAGAAG | 0.36
GUCUCGGCGACCUGGAGCGGCCGCGCUUGCGGAGCCGUCACCAUGCCCCUGGCUAGAGAUCUGUUACACCCUUCCUUGGAGGAGGAGAAGAAAAAACAUAAGAAGAAACGGCUGGUUCAG | 0.342
UUUAAAGGUUUUUUUUUUUUAAUUUAAUUUUUCCUUUUGGGGGUAAAGUUUGCUCUACCAAAUAGUGAUUGUAACAAAUUGAUCUGUUUUGGAUGUUGCUAUAGUGACAUGCAGUUAUAU | 8.36
AAGAUCAAAGAGAAGUACAUUGACCAGGAGGAGCUGAACAAGACAAAGCCUAUCUGGACCAGAAACCCGGAUGACAUCACGCAGGAGGAGUAUGGCGAAUUCUAUAAGAGCCUCACCAAU | 0.135

Block 3
Target: RNA binding protein fox-1 homolog 2, RRM domain, GST-SBP tag (RBFOX2, Homo sapiens, UniProt O43251-10, residues 100-194)
Technique: RNA Bind-n-Seq
Form: RNA
Medium: in vitro
Concentration: 365 nM
Setting: natural RNA segment, single round, ends assumed
Relative to: no-protein control
Direction: higher = stronger binding
All sequences stand within: GGGAGUUCUACAGUCCGACGAUC … UGGAAUUCUCGGGUGCCAA
Construct (chain): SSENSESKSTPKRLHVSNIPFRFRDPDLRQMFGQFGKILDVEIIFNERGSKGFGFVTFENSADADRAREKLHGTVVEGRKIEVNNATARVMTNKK
Sequence | RBNS enrichment (R)
CCUCCCGUGGGCCCUGUGGUGUGAUGCUGUGUCUGUAUAUUCUAUACAAAGGUACUUGUCCUUUCCCUUUGUAAACUACAUUUGACAUGGAUUAAACCAGUAUAAACAGU | 0.435
GGCCCAGUUUGGGCCAGUCCAUUUUUGGAGGUCACUCUUUCCCCCCUCAUCCCCUCACCUCCUUCUCUUUACCCCCUUCACGUACUUCCUUUCUUUCUUCCCUCUGUUAU | 1.17
UGCAAGAUUUUAAAAGUUUUGUUCUUUUAUAGACUGAUUUAGAAAAACAAAUGAUUAGUUAAAAAAAGAAAAUAUACAUUUGUUGGUAACUAAUGUUAUUUUUUAAAACC | 0.668
CCCAAGAUCGAGUUGGCCGAGGAUGGAUGAUUGUGGCAGCAGAAGCCGUUGCAGCCCCACGUUGUGCUCUAGGCAGGGACCUUUGGCCCCUUUGGGGAGGGAGAGACAGA | 0.266
GAAUGCACACAGGUCUUCAGGGAGUUUGACUGUCCUUACCCAGAGUCCUCUCUGAUGCAGCUGACCUACCUGGGCAUGACAAGCCUGUCAUCUCGCCUGGGGACCUGGUU | 0.705
GCUUCCACCAUCCAGGUGCACCACUGAAGUGAGGACACACCGGAGCCAGGCGCCUGCUCAUGUUGAAGUGCGCUGUUCACACCCGCUCCGGAGAGCACCCCAGCAGCAUC | 0.352
UGGAAACUUUUCUUAAAAAGUUAUAACCAACUUUUCUAUUAAAAGUGGGAAUUAGGAGAGAAGGUAGGGGUUGGGAAUCAGAGAGAAUGGCUUUGGUCUCUUGCUUGUGG | 1.43
UUUUUGUAGUUGUGGCAUCUUGUUGACAUCGAAUAUGACUUUGAUAAUAAAUACCGGUUCCUGAAAACGGCCUGCUUGUGUGUGCUGUGUGGGCAACCACGCGAGGUGUG | 0.997
CCCAAAUGCAGCCCAUCGGGGAGUCACAGUCAGUCCCCCCGGCCCCCCUCCCAGUCCCUGUUGGCUUUCGGUAGCUCUCGCAUGCAGUUCUAUUAACAGCCGUCUAGAAG | 14.4
AGAGCCUCUGGACGGCCUUGGCAACAGCAAAAUCAUGGGACAACACCUCUCUCCACGGAAAGGUCACAGUGGACAGCCCGGGCAGUAGGAUGCAGCCCCAGAGGCUGGUG | 0.956
GGGGGCAGGGCCUUUGUCUGUCUCAUCUCUGUAUUCCCAAAUGCCUAACAGUACAGAGCCAUGACUCAAUAAAUACAUGUUAAAUGGAUGAAUGAAUUCCUCUGAAACUC | 0.524
ACUGAGCAUGCAACGCUGCUGCCGUCCUUGUCUGUGGUUUCAGUUUGUAAAACUGCUAAGCCAUUCUCAUGCACAUGGGUGAAUGACAUUUCCUAGGAACGGUCUCUGAC | 2.8

Block 4
Target: Sal-like protein 4, full length isoform B (SALL4, Homo sapiens, UniProt Q9UJQ4-2, residues 1-616)
Technique: universal PBM
Form: double-stranded DNA, one strand shown
Medium: in vitro
Concentration: not given
Setting: 8-mer, flanks averaged, mean of replicates
Direction: higher = stronger binding
Sequence | E-score
AAGGAGAA | 0.115
CCCGCACG | -0.34
AAACCTTC | -0.0939
AACTTCCA | -0.0977
CTATGGTA | 0.0421
ATAGCATG | 0.0695
ATCCTTCC | -0.0111
ATGCTCAC | -0.0779
CGGACAAC | -0.0721
ATCGAGAG | 0.0458
CCTAGGCC | -0.215
CGAGCACC | -0.168
ACTCTTCG | -0.125
AACGTTCG | -0.0908
AACTCCTT | 0.0365
AAAGAACC | -0.0484
CCGCCTAA | -0.142
GCGATACC | -0.182
GGGTCCGA | -0.281
GAGTACTA | 0.16
ACATACCT | 0.11
CTCGGTAC | -0.197
ATCACTCG | 0.0561
CAGCAAAA | 0.134
GCGTCATA | 0.26

A few entries again (block 4):
Sequence | E-score
AACGTTCG | -0.0908
AACTCCTT | 0.0365
AAAGAACC | -0.0484
CCGCCTAA | -0.142
GCGATACC | -0.182
GGGTCCGA | -0.281
GAGTACTA | 0.16
